Published values pooled from the literature.
Protocols differ between the studies behind these lines. ± gives the spread as reported.

| SMILES | test | test system | setting | how to read | endpoint | result |
| --- | --- | --- | --- | --- | --- | --- |
| COc1ccc2c(c1)c(CC(=O)OCOC(C)=O)c(C)n2C(=O)c1ccc(Cl)cc1 |  | BALB/c mice, acetic acid writhing | intraperitoneal, 30 mg/kg, 20 min count |  | writhing count | 5.17 ± 1.33 |
| O=c1c(OCc2ccccc2)c(-c2ccc([N+](=O)[O-])cc2)oc2ccccc12 |  | diabetic rat | 7.5 mg/kg, p-nitrophenyl β-glucoside induced |  | serum alanine aminotransferase | 42.8 ± 3 IU |
| O=C1CCN(Cc2ccccc2)CC1C(C[N+](=O)[O-])c1ccccc1 (stereo not shown) |  | mouse acetic acid writhing | 50 mg/kg, added: yohimbine 1 mg/kg pretreatment |  | number of writhes | 54.9 ± 1.3 |
| CC(C)CCC[C@@H](C)[C@H]1CCC([C@@H]2CC[C@H]3C[C@H](O)CC[C@]3(C)[C@H]2O)[C@]1(C)CC(=O)O (stereo partly shown) | inhibitor | C57BL/6J male mice, antibiotic-treated, liver | oral gavage, 10 mg/kg, added: taurocholic acid 400 mg/kg |  | Fxr mRNA level | inhibited |
| O=c1c(OCc2ccccc2)c(-c2ccc(Cl)cc2)oc2ccccc12 |  | diabetic rat | 5 mg/kg, 28 days, p-nitrophenyl β-glucoside induced |  | serum HDL cholesterol | 45.3 ± 2.14 mg/dL |
| Cc1ccc(C(=O)Nc2ccc(CP(=O)(O)O)cc2CP(=O)(O)O)cc1NC(=O)c1cccc(NC(=O)Nc2cccc(C(=O)Nc3cc(C(=O)Nc4ccc(CP(=O)(O)O)cc4CP(=O)(O)O)ccc3C)c2)c1 |  | human plasma | 235 µM |  | APTT | 42.6 ± 5.8 s |
| CCCCCCCCCn1cc(C(N)(CO)CO)nn1 |  | APP/PS1 mouse, cortex, hippocampus | dose not given |  | Lamp1 and TFEB protein level | increased |
| CC(C)C[C@H](NC(=O)[C@H](CCCNC(=N)N)NC(=O)CNC(=O)[C@@H](N)CC(C)C)C(=O)N[C@@H](CO)C(=O)N[C@@H](CCC(N)=O)C(=O)N[C@@H](CCC(=O)O)C(=O)N[C@@H](CC(C)C)C(=O)N[C@@H](Cc1c[nH]cn1)C(=O)N[C@@H](CCCNC(=N)N)C(=O)N[C@@H](CC(C)C)C(=O)N[C@@H](CCC(N)=O)C(=O)N[C@H](C(=O)N[C@@H](Cc1ccc(O)cc1)C(=O)N1CCC[C@H]1C(=O)N[C@@H](CCCNC(=N)N)C(=O)N[C@H](C(=O)N[C@@H](CC(N)=O)C(=O)N[C@H](C(=O)NCC(=O)N[C@@H](CO)C(=O)N[C@@H](CC(N)=O)C(=O)N[C@H](C(=O)N[C@@H](Cc1ccc(O)cc1)C(N)=O)[C@@H](C)O)[C@@H](C)O)[C@@H](C)O)[C@@H](C)O |  | TgCRND8 mice, brain | icv, dose not given, 5 months | relative to: vehicle | synaptophysin level increase | 30% |
| Cc1ccc(-c2oc3ccccc3c(=O)c2OCc2ccccc2)cc1 |  | diabetic rat | 5 mg/kg, p-nitrophenyl β-glucoside induced |  | serum alanine aminotransferase | 38.2 ± 2.61 IU |
| O=C(CCN1CCC(O)CC1)Nc1nc(-c2ccccc2)cs1 |  |  | 0.1 mM, 20 min |  | DPPH radical scavenging | 23.7% |
| CCCC[C@H](NC(=O)[C@@H](NC(=O)[C@H](CC(=O)O)NC(=O)[C@H](CCC(N)=O)NC(=O)[C@H](CC(C)C)NC(=O)[C@H](CC(C)C)NC(=O)[C@H](CCCN)NC(=O)[C@H](CCCNC(=N)N)NC(=O)[C@H](C)NC(=O)[C@H](CO)NC(=O)[C@H](CC(C)C)NC(=O)[C@H](CCC(N)=O)NC(=O)[C@H](CC)NC(=O)[C@H](CC(C)C)NC(=O)[C@@H](NC(=O)[C@H](CCCN)NC(=O)[C@H](CCCNC(=N)N)NC(=O)[C@H](Cc1ccc(O)cc1)NC(=O)[C@H](CO)NC(=O)[C@H](CCC(N)=O)NC(=O)[C@@H](NC(=O)[C@H](Cc1ccccc1)NC(=O)[C@@H](NC(=O)[C@H](C)NC(=O)[C@H](CC(=O)O)NC(=O)[C@@H](C)NC(=O)[C@H](Cc1ccc(O)cc1)NC)[C@@H](C)CC)[C@@H](C)O)C(C)C)[C@@H](C)CC)C(=O)N[C@@H](CC(=O)O)C(=O)N[C@@H](CCCNC(=N)N)C(=O)NC | GH release, ELISA | male rat, anaesthetised, serum | intravenous, 1 µg/kg, 5 min |  | serum GH level | 642 ± 29.7 ng/mL |
| COc1ccc(C2CC(c3ccc(C)cc3)=Nc3ccccc3S2)cc1 (stereo not shown) |  | rat, normal, overnight fasted | oral, 20 mg/kg, 90 min, oral glucose tolerance test, added: glucose 3 g/kg oral |  | blood glucose | 109 ± 4.21 mg/dL |
| CC12CC(O)C3CC1(OC1OC(CO)C(O)C(O)C1O)C3(COC(=O)c1ccccc1)C(=O)O2 (stereo not shown) | tail suspension test | mice, reserpine model | 14 mg/kg, 7 days |  | immobility time | 101 ± 11.2 s |
| CC[C@H]1[C@@H](O)[C@@H]2[C@H](CC[C@]3(C)[C@@H]([C@H](C)CCOS(=O)(=O)[O-])CC[C@@H]23)[C@@]2(C)CC[C@@H](O)C[C@@H]12.[Na+] |  | ob/ob NASH mouse model | oral, 3 mg/kg once daily, week 4 |  | fasting blood glucose | 8.2 ± 0.2 mmol/L |
| CCCOC(=O)Cc1c(C)n(C(=O)c2ccc(Cl)cc2)c2ccc(OC)cc12 |  | BALB/c mice, acetic acid writhing | intraperitoneal, 30 mg/kg, 20 min count |  | writhing count | 7.5 ± 2.04 |
| CN1CCC[C@]1(C)/C=C/S(=O)(=O)NC(=O)Nc1c2c(cc3c1CCC3)CCC2 | IL-1β release | human, whole blood ex vivo | oral, 12.5 mg, 12 h after last dose, multiple ascending dose, added: LPS and ATP |  | inhibition | ~90% |
| COc1ccc2c(c1)c(CC(=O)OCC(=O)OC(C)(C)C)c(C)n2C(=O)c1ccc(Cl)cc1 | acetic acid writhing test | BALB/c mouse | intraperitoneal, 20 mg/kg | relative to: negative control | analgesia | 66.3% |
| C=C(c1cc(F)c(C(=O)O)c(F)c1)c1cc2c(cc1C)C(C)(C)CCC2(C)C | RNA sequencing, measured: Ccl6 mRNA | rat, brain | dose not given, 24 h, single dose | relative to: vehicle | log2 fold change | 0.66 |
| COc1c2c(cc3oc(COC4OC(CO)C(O)C(O)C4O)cc(=O)c13)OC(C(C)(C)O)C2 (stereo not shown) | analgesia | mouse | oral, 4 mg/kg, 1 h |  | hot plate latency | 11.5 ± 1.51 s |
| COc1ccc2c(c1)c(CC(=O)OCC(=O)c1ccccc1)c(C)n2C(=O)c1ccc(Cl)cc1 |  | BALB/c mice, acetic acid writhing | intraperitoneal, 10 mg/kg, 20 min count |  | writhing count | 15.2 ± 1.54 |
| [2H]C([2H])([2H])C(c1cc2nnc(-c3cc(F)ccc3F)n2nc1OCc1ncnn1C)(C([2H])([2H])[2H])C([2H])([2H])[2H] | Racine scale | amygdala-kindled Wistar rats | oral, 100 mg/kg, 2 h before stimulation, unit not given | relative to: baseline | seizure severity change | -4 |
| CCCC[C@H](NC(=O)[C@@H](NC(=O)[C@H](CC(=O)O)NC(=O)[C@H](CCC(N)=O)NC(=O)[C@H](CC(C)C)NC(=O)[C@H](CC(C)C)NC(=O)[C@H](CCCN)NC(=O)[C@H](CCCNC(=N)N)NC(=O)[C@H](C)NC(=O)[C@H](CO)NC(=O)[C@H](CC(C)C)NC(=O)[C@H](CCC(N)=O)NC(=O)[C@H](CC)NC(=O)[C@H](CC(C)C)NC(=O)[C@@H](NC(=O)[C@H](CCCN)NC(=O)[C@H](CCCNC(=N)N)NC(=O)[C@H](Cc1ccc(O)cc1)NC(=O)[C@H](CO)NC(=O)[C@H](CCC(N)=O)NC(=O)[C@@H](NC(=O)[C@H](Cc1ccccc1)NC(=O)[C@@H](NC(=O)[C@H](C)NC(=O)[C@H](CC(=O)O)NC(=O)[C@H](C)NC(=O)CCc1ccc(O)cc1)[C@@H](C)CC)[C@@H](C)O)C(C)C)[C@@H](C)CC)C(=O)N[C@@H](CC(=O)O)C(=O)N[C@@H](CCCNC(=N)N)C(=O)NCCCCC(N)=O | GH release, ELISA | male Sprague-Dawley rat, anaesthetised, serum | subcutaneous, 3 µg/kg, 0 min |  | serum GH level | 31.5 ± 3.4 ng/mL |
| COc1ccc(-c2cc(COC3c4cc5c(cc4C(c4cc(OC)c(OC)c(OC)c4)C4C(=O)OCC34)OCO5)on2)cc1 (stereo not shown) | tubulin polymerisation, inhibitor |  |  |  | IC50 | 880 nM |
| CCCC[C@H](NC(=O)[C@@H](NC(=O)[C@H](CC(=O)O)NC(=O)[C@H](CCC(N)=O)NC(=O)[C@H](CC(C)C)NC(=O)[C@H](CC(C)C)NC(=O)[C@H](CCCN)NC(=O)[C@H](CCCNC(=N)N)NC(=O)[C@H](C)NC(=O)[C@H](CO)NC(=O)[C@H](CC(C)C)NC(=O)[C@H](CCC(N)=O)NC(=O)[C@H](CC)NC(=O)[C@H](CC(C)C)NC(=O)[C@@H](NC(=O)[C@H](CCCN)NC(=O)[C@H](CCCNC(=N)N)NC(=O)[C@H](Cc1ccc(O)cc1)NC(=O)[C@H](CO)NC(=O)[C@H](CCC(N)=O)NC(=O)[C@@H](NC(=O)[C@H](Cc1ccccc1)NC(=O)[C@@H](NC(=O)[C@H](C)NC(=O)[C@H](CC(=O)O)NC(=O)[C@@H](C)NC(=O)[C@H](Cc1ccc(O)cc1)NC)[C@@H](C)CC)[C@@H](C)O)C(C)C)[C@@H](C)CC)C(=O)N[C@@H](CC(=O)O)C(=O)NCCCCNC(=N)N | GH release, ELISA | male Sprague-Dawley rat, anaesthetised, serum | subcutaneous, 3 µg/kg, 0 min |  | serum GH level | 46.1 ± 6.3 ng/mL |
| Cc1ncc([N+](=O)[O-])n1CCOCc1nnc(SCC(=O)c2ccc(Br)cc2)o1 |  |  | 100 µg/mL, 45 min |  | DPPH scavenging | 42.71 ± 0.25% |

For quick reference, copied from above:
| SMILES | test | test system | setting | how to read | endpoint | result |
| --- | --- | --- | --- | --- | --- | --- |
| CCCOC(=O)Cc1c(C)n(C(=O)c2ccc(Cl)cc2)c2ccc(OC)cc12 |  | BALB/c mice, acetic acid writhing | intraperitoneal, 30 mg/kg, 20 min count |  | writhing count | 7.5 ± 2.04 |
| [2H]C([2H])([2H])C(c1cc2nnc(-c3cc(F)ccc3F)n2nc1OCc1ncnn1C)(C([2H])([2H])[2H])C([2H])([2H])[2H] | Racine scale | amygdala-kindled Wistar rats | oral, 100 mg/kg, 2 h before stimulation, unit not given | relative to: baseline | seizure severity change | -4 |
